Published values gathered from unrelated publications.
Each line is one published result; not all experiments were run side by side.

NCCc1ccccc1  ΔTm (SAR11_0271 Candidatus Pelagibacter sp.; differential scanning fluorimetry; concentration not given; higher = stronger binding): 4.66 °C
O=C(Nc1cccnn1)N1CCN([C@@H]2CCOc3cc(C(F)(F)F)ccc32)CC1  inhibition (SKCa potassium channel; binding; 20 µM): -1%
CC(C)[C@@H](CN1CC[C@@](C)(c2cccc(O)c2)[C@@H](C)C1)NC(=O)[C@@]1(C)Cc2ccc(O)cc2CN1  reversal of U-50488 diuresis (kappa opioid receptor; antagonist; Long-Evans rat; subcutaneous, 30 mg/kg, 1 week after dosing, together with: U-50488; baseline: U-50488 alone): -24%
COc1nc(NC(C)C)nc(NC(C)C)n1  Emax (FXR; Bsep mRNA induction, agonist, qPCR, item: Bsep; Oryzias latipes, larvae; 10 µM, 48 h; baseline: maximal induction by reference agonist): 33.6%
O=C1NC(=O)[C@](CNC(=O)c2cnn(-c3ccccc3)n2)(C2CC2)N1  activity (trypsin; concentration not given): inactive
Nc1ncnc2c1ncn2[C@@H]1O[C@H](COP(=O)(O)OP(=O)(O)OP(=O)(O)O)[C@@H](O)[C@H]1O  IC50 (purinergic P2Y receptor; radioligand binding): 19 nM
c1ccc(C(NCCNC(c2ccccc2)c2ccccc2)c2ccccc2)cc1  inhibition (GABAA central, rat; binding; 10 µM, Eurofins selectivity panel, together with: muscimol): 3%
Nc1ncc(-c2nc(N3CCOCC3)nc(N3CCOCC3)n2)c(C(F)F)n1  remaining binding (FLT3 ITD; KINOMEscan; 10 µM; baseline: control): 77%
C[C@H](C(=O)N[C@H]1COc2ccccc2[C@@H]1S(C)(=O)=O)c1ccc(F)cc1  inhibition (AMPA receptor, rat; binding; 10 µM, Eurofins selectivity panel): -4%
CN1CCN(c2ccc(Nc3nccc(-c4ccccc4)n3)cc2C(F)(F)F)CC1  remaining binding (human FLT3 ITD; 10000 nM; baseline: control): 0.65%
NCC(O)c1ccc(O)cc1 (racemic)  ΔTm (SAR11_0271 Candidatus Pelagibacter sp.; differential scanning fluorimetry; concentration not given; higher = stronger binding): 3.68 °C
COc1cc(Nc2ncc(F)c(Nc3ccc4c(n3)NC(=O)C(C)(C)O4)n2)cc(OC)c1OC  IC50 (SKCa potassium channel): > 10000 nM
CN(C)C(=O)c1cc2cnc(Nc3ccc(C(=O)NCCCCCCOc4cccc5c4C(=O)N(C4CCC(=O)NC4=O)C5=O)cc3)nc2n1C1CCCC1 (stereo not shown)  DC50 (N-Myc (human); degrader, immunoblotting, item: N-Myc; Kelly; 4 h): 229 nM

A few entries again:
C[C@H](C(=O)N[C@H]1COc2ccccc2[C@@H]1S(C)(=O)=O)c1ccc(F)cc1  inhibition (AMPA receptor, rat; binding; 10 µM, Eurofins selectivity panel): -4%
NCC(O)c1ccc(O)cc1 (racemic)  ΔTm (SAR11_0271 Candidatus Pelagibacter sp.; differential scanning fluorimetry; concentration not given; higher = stronger binding): 3.68 °C
